{"data": "Experimental data gathered from unrelated publications", "note": "Parts stem from different laboratories: compare values within a part only.", "chain of UniProt P10721 (whole entry, unmodified, looked up)": "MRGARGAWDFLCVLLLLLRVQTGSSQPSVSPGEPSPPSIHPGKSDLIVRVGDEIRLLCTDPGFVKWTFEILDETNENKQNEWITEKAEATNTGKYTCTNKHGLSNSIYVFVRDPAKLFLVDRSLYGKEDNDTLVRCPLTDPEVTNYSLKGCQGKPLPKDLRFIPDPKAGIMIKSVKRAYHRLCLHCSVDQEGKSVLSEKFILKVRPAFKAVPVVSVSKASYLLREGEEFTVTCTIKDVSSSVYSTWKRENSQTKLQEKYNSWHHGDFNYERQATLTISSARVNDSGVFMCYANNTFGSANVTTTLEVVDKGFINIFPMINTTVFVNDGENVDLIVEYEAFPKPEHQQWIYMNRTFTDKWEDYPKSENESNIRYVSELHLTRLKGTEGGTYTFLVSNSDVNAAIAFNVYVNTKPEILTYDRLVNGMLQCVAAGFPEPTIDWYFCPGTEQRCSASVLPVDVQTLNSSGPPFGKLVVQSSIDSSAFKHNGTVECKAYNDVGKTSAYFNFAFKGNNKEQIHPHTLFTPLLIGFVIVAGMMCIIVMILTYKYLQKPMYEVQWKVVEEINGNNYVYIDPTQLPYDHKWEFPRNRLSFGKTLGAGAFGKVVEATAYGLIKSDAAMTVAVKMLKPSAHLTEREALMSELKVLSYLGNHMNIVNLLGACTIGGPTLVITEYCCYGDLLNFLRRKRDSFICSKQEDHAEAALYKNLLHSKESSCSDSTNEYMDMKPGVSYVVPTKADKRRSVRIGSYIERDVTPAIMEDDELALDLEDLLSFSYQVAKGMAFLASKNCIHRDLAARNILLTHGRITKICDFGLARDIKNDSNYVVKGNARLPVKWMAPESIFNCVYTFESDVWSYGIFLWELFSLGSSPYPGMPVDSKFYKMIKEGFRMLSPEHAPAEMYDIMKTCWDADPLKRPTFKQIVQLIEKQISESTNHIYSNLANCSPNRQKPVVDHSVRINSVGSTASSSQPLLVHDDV", "chain of UniProt P51817 (whole entry, looked up)": "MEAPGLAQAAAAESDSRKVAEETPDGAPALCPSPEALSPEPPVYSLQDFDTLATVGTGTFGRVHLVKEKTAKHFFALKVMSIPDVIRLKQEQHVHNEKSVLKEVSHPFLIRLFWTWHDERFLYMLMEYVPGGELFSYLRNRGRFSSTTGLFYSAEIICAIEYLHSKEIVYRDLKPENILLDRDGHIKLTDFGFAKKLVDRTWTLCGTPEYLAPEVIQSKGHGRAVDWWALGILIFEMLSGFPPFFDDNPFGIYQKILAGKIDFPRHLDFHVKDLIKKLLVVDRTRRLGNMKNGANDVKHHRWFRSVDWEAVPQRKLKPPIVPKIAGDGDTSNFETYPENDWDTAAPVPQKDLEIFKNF", "chain of UniProt P49841 (whole entry, looked up)": "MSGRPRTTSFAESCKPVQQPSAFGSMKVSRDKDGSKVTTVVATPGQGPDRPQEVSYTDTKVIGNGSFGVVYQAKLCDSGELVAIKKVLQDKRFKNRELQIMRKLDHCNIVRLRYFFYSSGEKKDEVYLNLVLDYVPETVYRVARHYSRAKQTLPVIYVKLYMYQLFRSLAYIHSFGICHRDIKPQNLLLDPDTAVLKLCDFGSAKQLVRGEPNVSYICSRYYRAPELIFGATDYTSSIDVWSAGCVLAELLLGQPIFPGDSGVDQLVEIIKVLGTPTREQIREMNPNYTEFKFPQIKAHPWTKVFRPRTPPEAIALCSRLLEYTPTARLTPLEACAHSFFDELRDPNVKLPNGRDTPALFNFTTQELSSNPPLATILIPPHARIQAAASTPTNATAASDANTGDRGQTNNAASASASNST", "chain of UniProt Q9BX84 (whole entry, looked up)": "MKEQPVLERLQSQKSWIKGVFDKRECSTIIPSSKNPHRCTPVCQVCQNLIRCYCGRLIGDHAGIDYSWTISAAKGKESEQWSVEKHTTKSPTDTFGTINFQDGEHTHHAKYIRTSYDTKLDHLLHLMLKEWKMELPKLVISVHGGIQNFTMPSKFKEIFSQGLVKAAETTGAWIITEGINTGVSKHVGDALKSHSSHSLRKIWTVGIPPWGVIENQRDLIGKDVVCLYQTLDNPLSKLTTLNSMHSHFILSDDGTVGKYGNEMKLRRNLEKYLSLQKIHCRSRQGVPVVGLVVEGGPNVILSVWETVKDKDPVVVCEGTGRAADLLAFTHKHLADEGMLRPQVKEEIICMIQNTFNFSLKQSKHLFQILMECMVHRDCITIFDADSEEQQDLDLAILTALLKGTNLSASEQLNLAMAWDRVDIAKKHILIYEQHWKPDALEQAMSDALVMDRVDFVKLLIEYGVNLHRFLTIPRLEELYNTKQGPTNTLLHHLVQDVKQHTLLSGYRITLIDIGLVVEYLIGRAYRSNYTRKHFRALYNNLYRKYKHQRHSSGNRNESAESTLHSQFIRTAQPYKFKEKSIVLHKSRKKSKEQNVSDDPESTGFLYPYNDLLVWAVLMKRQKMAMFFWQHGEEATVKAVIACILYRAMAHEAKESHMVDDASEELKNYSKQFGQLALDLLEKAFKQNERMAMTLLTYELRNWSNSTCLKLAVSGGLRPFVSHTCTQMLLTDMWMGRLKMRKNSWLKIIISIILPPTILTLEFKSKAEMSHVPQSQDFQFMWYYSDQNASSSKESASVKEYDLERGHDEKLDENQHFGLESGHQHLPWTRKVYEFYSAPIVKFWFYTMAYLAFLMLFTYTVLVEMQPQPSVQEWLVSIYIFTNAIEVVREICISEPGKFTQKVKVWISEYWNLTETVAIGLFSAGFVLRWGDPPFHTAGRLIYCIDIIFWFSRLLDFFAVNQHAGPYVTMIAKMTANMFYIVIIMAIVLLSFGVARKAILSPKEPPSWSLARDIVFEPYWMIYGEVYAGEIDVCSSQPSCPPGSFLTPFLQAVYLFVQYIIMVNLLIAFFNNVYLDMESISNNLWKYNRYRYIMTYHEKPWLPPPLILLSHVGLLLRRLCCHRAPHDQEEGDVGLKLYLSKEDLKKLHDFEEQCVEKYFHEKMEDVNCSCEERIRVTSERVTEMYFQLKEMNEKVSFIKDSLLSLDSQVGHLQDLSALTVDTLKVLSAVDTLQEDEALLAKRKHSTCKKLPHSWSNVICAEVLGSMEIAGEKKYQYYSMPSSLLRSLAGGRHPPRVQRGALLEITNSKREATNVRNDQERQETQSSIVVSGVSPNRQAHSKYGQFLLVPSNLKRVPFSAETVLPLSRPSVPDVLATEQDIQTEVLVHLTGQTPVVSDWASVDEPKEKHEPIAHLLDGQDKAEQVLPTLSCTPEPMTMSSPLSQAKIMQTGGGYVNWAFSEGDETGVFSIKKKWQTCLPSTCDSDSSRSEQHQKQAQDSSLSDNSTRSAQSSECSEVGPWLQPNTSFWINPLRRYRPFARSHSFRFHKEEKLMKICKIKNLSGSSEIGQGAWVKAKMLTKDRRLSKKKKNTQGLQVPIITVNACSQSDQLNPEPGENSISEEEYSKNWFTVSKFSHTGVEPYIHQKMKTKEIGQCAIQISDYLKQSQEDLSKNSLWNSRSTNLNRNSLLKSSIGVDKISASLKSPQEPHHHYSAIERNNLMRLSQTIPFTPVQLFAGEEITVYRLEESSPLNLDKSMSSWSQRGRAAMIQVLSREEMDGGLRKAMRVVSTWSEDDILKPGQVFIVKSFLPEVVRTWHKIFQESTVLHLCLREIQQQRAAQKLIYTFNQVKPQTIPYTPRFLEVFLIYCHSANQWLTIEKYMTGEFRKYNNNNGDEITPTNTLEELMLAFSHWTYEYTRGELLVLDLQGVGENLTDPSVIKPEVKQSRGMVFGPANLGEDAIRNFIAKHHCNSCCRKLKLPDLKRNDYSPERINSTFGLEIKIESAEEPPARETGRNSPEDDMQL", "chain of UniProt P27037 (whole entry, looked up)": "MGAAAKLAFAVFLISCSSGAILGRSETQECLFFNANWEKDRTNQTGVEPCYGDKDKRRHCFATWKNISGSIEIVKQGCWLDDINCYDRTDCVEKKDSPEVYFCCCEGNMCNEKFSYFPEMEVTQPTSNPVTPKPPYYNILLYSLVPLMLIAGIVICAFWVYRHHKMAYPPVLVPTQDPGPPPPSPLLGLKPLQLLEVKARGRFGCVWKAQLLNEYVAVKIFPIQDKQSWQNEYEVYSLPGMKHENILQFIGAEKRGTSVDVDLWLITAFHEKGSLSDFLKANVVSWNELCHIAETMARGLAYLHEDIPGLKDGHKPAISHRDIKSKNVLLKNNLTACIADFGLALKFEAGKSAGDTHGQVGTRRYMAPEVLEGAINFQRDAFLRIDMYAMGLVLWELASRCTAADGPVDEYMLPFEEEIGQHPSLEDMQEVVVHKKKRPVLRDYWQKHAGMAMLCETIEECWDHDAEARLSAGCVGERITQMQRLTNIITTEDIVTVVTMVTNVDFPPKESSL", "chain of UniProt Q13177 (whole entry, looked up)": "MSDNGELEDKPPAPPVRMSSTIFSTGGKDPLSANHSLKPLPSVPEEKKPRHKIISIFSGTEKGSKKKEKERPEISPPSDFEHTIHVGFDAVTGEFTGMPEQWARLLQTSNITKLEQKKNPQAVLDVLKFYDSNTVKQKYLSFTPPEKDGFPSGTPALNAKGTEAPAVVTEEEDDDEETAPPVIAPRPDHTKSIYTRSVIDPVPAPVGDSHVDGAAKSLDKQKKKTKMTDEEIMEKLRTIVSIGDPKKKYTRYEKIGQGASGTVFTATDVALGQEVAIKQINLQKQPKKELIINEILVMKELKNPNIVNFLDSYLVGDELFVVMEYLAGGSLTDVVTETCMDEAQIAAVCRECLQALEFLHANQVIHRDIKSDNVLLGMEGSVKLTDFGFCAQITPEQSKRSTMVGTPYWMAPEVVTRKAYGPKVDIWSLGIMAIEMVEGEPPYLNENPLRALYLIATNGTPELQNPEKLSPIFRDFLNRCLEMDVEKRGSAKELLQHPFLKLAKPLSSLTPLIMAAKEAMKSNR"}
{"data": "Sample 1", "target": "Dual specificity mitogen-activated protein kinase kinase 6 (MAP2K6, Homo sapiens, UniProt P52564)", "read-out": "enzyme activity", "mode": "inhibitor", "tested at": "0.5 µM", "baseline": "control", "Target sequence (P52564 1-334)": "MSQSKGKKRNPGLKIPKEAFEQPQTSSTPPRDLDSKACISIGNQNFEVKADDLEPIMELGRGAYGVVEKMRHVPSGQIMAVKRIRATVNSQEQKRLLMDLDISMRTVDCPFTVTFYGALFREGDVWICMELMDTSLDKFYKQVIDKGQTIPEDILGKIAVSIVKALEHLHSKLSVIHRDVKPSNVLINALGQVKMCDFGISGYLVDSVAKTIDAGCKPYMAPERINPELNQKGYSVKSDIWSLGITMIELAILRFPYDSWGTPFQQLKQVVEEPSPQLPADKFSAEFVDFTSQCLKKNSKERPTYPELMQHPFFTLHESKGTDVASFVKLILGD"}
{"SMILES": "COc1cc2c(Nc3ccc(Br)cc3F)ncnc2cc1OCC1CCN(C)CC1", "remaining activity": "96.2%"}
{"SMILES": "Clc1ccc(Nc2nnc(Cc3ccncc3)c3ccccc23)cc1", "remaining activity": "95.3%"}
{"SMILES": "O=C1c2ccccc2-c2nc3nnnn3nc21", "remaining activity": "85.7%"}
{"SMILES": "CC(C)(C)c1nc2c3cc[nH]c(=O)c3c3cc(F)ccc3c2[nH]1", "remaining activity": "89%"}
{"SMILES": "COc1cc2c(N3CCN(C(=O)Nc4ccc(OC(C)C)cc4)CC3)ncnc2cc1OCCCN1CCCCC1", "remaining activity": "102%"}
{"data": "Sample 2", "read-out": "AlphaScreen signal", "method": "AlphaScreen counter screen", "sample": "His6 peptide without bromodomain", "tested at": "50 µM", "setting": "assay interference check"}
{"SMILES": "Nc1nc2ccc([N+](=O)[O-])cc2c(=O)[nH]1", "inhibition [%]": 6.9}
{"SMILES": "N#CC(=Cc1ccc(O)c(O)c1)C(=O)Nc1ccccc1", "inhibition [%]": 33}
{"SMILES": "Cc1ccc(-n2nc(C(C)(C)C)cc2NC(=O)Nc2ccc(OCCN3CCOCC3)c3ccccc23)cc1", "inhibition [%]": 42.4}
{"SMILES": "Clc1ccc(CNc2cncc(-c3ccsc3)c2)cc1", "inhibition [%]": 8.8}
{"SMILES": "CNC(=O)c1c(F)cccc1Nc1nc(Nc2cc3c(cc2OC)CCN3C(=O)CN(C)C)nc2[nH]ccc12", "inhibition [%]": 37.4}
{"SMILES": "Cn1cc(C2=C(c3ccc(Cl)cc3Cl)C(=O)NC2=O)c2ccccc21", "inhibition [%]": 16.4}
{"data": "Sample 3", "SMILES": "CNCc1ccccc1-c1csc([C@H](C)Nc2nc(C)nc3cc(OC)c(OC)cc23)c1", "tested at": "1 µM"}
{"target": "KIT (Homo sapiens, UniProt P10721)", "read-out": "cell-free assay", "method": "competition with immobilised ligand", "remaining binding": "100%"}
{"target": "CDK13 (Homo sapiens, UniProt Q14004)", "read-out": "cell-free assay", "method": "competition with immobilised ligand", "remaining binding": "93%"}
{"target": "CDC42BPG (Homo sapiens, UniProt Q6DT37)", "method": "competition binding", "remaining binding": "100%"}
{"target": "KIT (Homo sapiens, UniProt P10721, A829P)", "read-out": "cell-free assay", "method": "competition with immobilised ligand", "remaining binding": "100%"}
{"target": "Aurora kinase A (AURKA, Homo sapiens, UniProt O14965)", "read-out": "cell-free assay", "method": "competition with immobilised ligand", "remaining binding": "73%"}
{"target": "Ribosomal protein S6 kinase alpha-5, C-terminal kinase domain (RPS6KA5, Homo sapiens, UniProt O75582)", "read-out": "cell-free assay", "method": "competition with immobilised ligand", "remaining binding": "82%"}
{"target": "PDGFRB (Homo sapiens, UniProt P09619)", "read-out": "cell-free assay", "method": "competition with immobilised ligand", "remaining binding": "99%"}
{"target": "Tyrosine-protein kinase ABL1, phosphorylated (ABL1, Homo sapiens, UniProt P00519, Q252H)", "read-out": "cell-free assay", "method": "competition with immobilised ligand", "remaining binding": "84%"}
{"target": "GSK3B (Homo sapiens, UniProt P49841)", "read-out": "cell-free assay", "method": "competition with immobilised ligand", "remaining binding": "100%"}
{"target": "ACVR2A (Homo sapiens, UniProt P27037)", "read-out": "cell-free assay", "method": "competition with immobilised ligand", "remaining binding": "76%"}
{"target": "TRPM6 (Homo sapiens, UniProt Q9BX84)", "read-out": "cell-free assay", "method": "competition with immobilised ligand", "remaining binding": "100%"}
{"target": "PAK2 (Homo sapiens, UniProt Q13177)", "read-out": "cell-free assay", "method": "competition with immobilised ligand", "remaining binding": "97%"}
{"target": "PRKX (Homo sapiens, UniProt P51817)", "read-out": "cell-free assay", "method": "competition with immobilised ligand", "remaining binding": "76%"}
{"data": "Sample 4", "SMILES": "CC(C)n1cnc(-c2ccc(F)cc2)c1-c1ncc(C(=O)Nc2ccc(N3CCN(C)CC3)cc2)[nH]1", "species": "idiopathic pulmonary fibrosis patients", "sample": "plasma"}
{"dose": "30 mg once daily", "time": "week 0", "setting": "median", "Cmax": "102 ng/mL"}
{"route": "oral", "dose": "30 mg once daily", "time": "week 0", "setting": "arithmetic mean", "Cmax": "104 ng/mL"}
{"dose": "30 mg twice daily", "time": "week 12", "setting": "arithmetic mean", "Cmax": "118 ng/mL"}
{"note": "Some of these lines once more (sample 3):"}
{"target": "PAK2 (Homo sapiens, UniProt Q13177)", "read-out": "cell-free assay", "method": "competition with immobilised ligand", "remaining binding": "97%"}
{"target": "PRKX (Homo sapiens, UniProt P51817)", "read-out": "cell-free assay", "method": "competition with immobilised ligand", "remaining binding": "76%"}
